Measured values pooled from the literature.
Several values in a cell are separate wells, animals, samples, runs or records. ± gives the spread as reported.
UCHL1: Ubiquitin carboxyl-terminal hydrolase isozyme L1 (UCHL1, Homo sapiens, UniProt P09936)
TOP2B: DNA topoisomerase 2-beta (TOP2B, Homo sapiens, UniProt Q02880)
Voltage-dependent P/Q-type calcium channel subunit alpha-1A: Voltage-dependent P/Q-type calcium channel subunit alpha-1A (Homo sapiens, UniProt O00555)
ADRA2C: Alpha-2C adrenergic receptor (ADRA2C, Homo sapiens, UniProt P18825)
T1: RNA aptamer; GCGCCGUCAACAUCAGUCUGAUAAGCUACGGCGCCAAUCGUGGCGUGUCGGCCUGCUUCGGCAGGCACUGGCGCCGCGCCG

`Nc1nc2c(ncn2[C@@H]2O[C@H](COP(=O)(O)O)[C@@H](O)[C@H]2O)c(=O)[nH]1` has a reaction rate of 3.46 s⁻¹ and 3.79 s⁻¹ and 1.95 s⁻¹ (GUK1 (Homo sapiens, UniProt Q16774, T83A); enzyme activity, NADH-coupled; 15.62 µM).
`O=C(COP(=O)(O)O)[C@@H](O)[C@H](O)[C@H](O)COP(=O)(O)O` has an enzyme activity of 1.18 and 1.33 and 1.15 (Phosphoglycerate mutase 1 (Homo sapiens, UniProt P18669); activator; 0.03906 mM, wild-type enzyme, unit not given; relative to no compound).
For `COc1cc([C@@H]2c3cc4c(cc3[C@@H](O[C@@H]3O[C@@H]5CO[C@@H](C)O[C@H]5[C@H](O)[C@H]3O)[C@H]3COC(=O)[C@H]23)OCO4)cc(OC)c1O`, helicase activity read “no effect” (human CMG helicase; in vitro; 500 µM).
`Cc1cc(-c2ccnc3[nH]cc(F)c23)cc(F)c1[C@@]1(O)[C@H](C)CN(C(=O)CN)C[C@@H]1C` — result for “probe labelling inhibition”: 96.7% (LATS1 (Homo sapiens, UniProt O95835); ATP/ADP probe binding, KiNativ; HEK293T lysate; 10 µM, Lys1 peptide ALYATKTLR).
Under “normalised MST signal”, `O=C(O)C1CCCNC1` (centres unmarked) is recorded as -0.0708 (SLC6A6 (Homo sapiens, UniProt P31641, G62A); binding, microscale thermophoresis; 61 nM, room temperature, together with: 50 nM labelled protein; higher = more binding).
`CC(=O)Nc1ccc(C=C(C#N)C(=O)NC2CCCCC2)cc1` gave a labelling of 10.9% (UCHL1; covalent, intact protein LC-MS; 12.5 µM).
`CCCC[C@H](NC(=O)[C@H](C)c1c(C)[nH]c2ccc(O)cc12)c1ncc(-c2cc3ccccc3nc2OC)[nH]1` gave an effect of 77% (PTGER1 (Homo sapiens, UniProt P34995); 10 µM).
The labelling of `CCC(=O)N1CCc2cc(C(=O)CCl)ccc21` is reported as 12.6% (UCHL1; covalent, intact protein LC-MS; 12.5 µM).
`COc1ccc2cc(CNC(=O)C3(C(=O)O)CC=CC3)ccc2c1` has a remaining activity of 95% (malate dehydrogenase; enzyme activity, inhibitor; 200 µM, pH 7.0, 1% DMSO, aggregation counter-screen).
`Cn1cc(NC(=O)CCl)c(C(=O)NC2CCC2)n1` gave a labelling of 15.9% (UCHL1; covalent, intact protein LC-MS; 12.5 µM).
Under “mean decatenated DNA”, `Cc1nc(CSc2nc(SCc3ccc(C(C)C)cc3)nc(=O)[nH]2)cs1` is recorded as 26.8% (TOP2B; decatenation; 31.25 µM).
`c1coc(-c2n[nH]cc2-c2ccnc3ccccc23)c1`: “log2 fold change” -0.03 (Serine/threonine-protein kinase HSL1 (HSL1, Candida albicans, UniProt Q5AG71); kinase binding, MIB/MS competition; Candida albicans lysate; 10 µM; reference: DMSO, negative = stronger binding).
The labelling of `N#CC(=Cc1ccc(OC(F)F)cc1)C(=O)N1CCCC1` is reported as 10.3% (UCHL1; covalent, intact protein LC-MS; 12.5 µM).
The remaining activity of `CC(CC(C)(C)c1ccccc1)NS(=O)(=O)c1cccc(Cl)c1O` (centres unmarked) is reported as 81% (malate dehydrogenase; enzyme activity, inhibitor; 200 µM, pH 7.0, 1% DMSO, aggregation counter-screen).
With `O=C(O)C1=CCNCC1` the current density was 39.1 pA/pF and 115 pA/pF and 54.9 pA/pF and 60.7 pA/pF and 112 pA/pF (BEST1 (Homo sapiens, UniProt O76090); whole-cell patch clamp; HEK293 transiently expressing channel; concentration not given, membrane potential 80 mV).
For `CC1(C)CC(=O)C(=CNc2ccc3cn[nH]c3c2)C(=O)C1`, the maximal inhibition was 17% (Glycogen synthase kinase-3 beta, with Nav1.6 (GSK3B, Homo sapiens, UniProt P49841); protein complex assembly, split-luciferase complementation; HEK293 with Nav1.6 co-transfected; 0.5 to 150 µM).
For `NS(=O)(=O)C#Cc1ccccc1`, the EC50 was 19.6 µM (Toxoplasma gondii; parasite growth; HFF, bradyzoite, alkaline-induced).
For `CC(=O)N[C@H](C(=O)N1C[C@H](O)C[C@H]1C(=O)NCc1ccc(-c2scnc2C)cc1)C(C)(C)SCCCCCCNC(=O)C[C@@H]1N=C(c2ccc(Cl)cc2)c2c(sc(C)c2C)-n2c(C)nnc21`, the ΔG was -9.7 ± 0.05 kcal/mol (BRD2/VHL, BD2; with VCB (Homo sapiens, UniProt P25440+P40337); ternary complex binding, ITC; 25 °C, together with: VHL-ElonginB-ElonginC titrated into compound:PROTAC:Brd2^BD2 complex).
With `N#CC(=Cc1cccc(Cl)c1Cl)C(=O)Nc1ccc(F)cc1` the labelling was 11.1% (UCHL1; covalent, intact protein LC-MS; 12.5 µM).
`C=C1C(=O)O[C@H]2[C@H]1CC/C(C)=C/CC[C@@]1(C)O[C@@H]21` has an EC90 of 24.7 µM (Toxoplasma gondii; parasite growth, luciferase reporter; HFF, tachyzoite; 72 h).
With `CNCCCC12CCC(c3ccccc31)c1ccccc12` the inhibition was 51% (Voltage-dependent P/Q-type calcium channel subunit alpha-1A; ion current, antagonist; HEK293; 10 µM).
For `C1=C/COCc2cc(ccc2OCCN2CCCC2)Nc2nccc(n2)-c2cccc(c2)COC/1`, “percent of control” read 75% (EGFR (Homo sapiens, UniProt P00533); concentration not given).
`Cc1ccc(-n2c(C)cc(C(=O)CCl)c2C)cc1C` has a labelling of 24.2% (UCHL1; covalent, intact protein LC-MS; 12.5 µM).
`COc1cc(NC(=O)c2ccccn2)ccc1/N=N/c1ccccc1Cl` has an activation of 89% (Metabotropic glutamate receptor 6 (Homo sapiens, UniProt O15303); positive allosteric modulator, IP accumulation; HEK293; 30 µM, in the dark, together with: low-dose orthosteric agonist).
`Cn1c(=O)c2[nH]cnc2n(C)c1=O` has an IC30 of greater than 30 µM (Voltage-dependent P/Q-type calcium channel subunit alpha-1A; ion current, antagonist, automated patch clamp).
For `CCC1(O)CCCN(C(=O)c2ccc(-c3ccc(F)c(NC(=O)CCl)c3)cc2)C1` (centres unmarked), the protein adduct was 97.5% (DNA dC->dU-editing enzyme APOBEC-3A (Homo sapiens, UniProt P31941); covalent modifier, intact protein mass spectrometry, refers to: adduct +26309 Da; 125 µM, 1 h, 5-fold molar excess).
With `CC[C@@H]1[C@H](F)C(=O)N[C@@H]1COc1nccc2cc(C(N)=O)c(OC)cc12` the inhibition was 16.8% (TLK2 (Homo sapiens, UniProt Q86UE8); ATP-site probe binding, ActivX profiling; THP-1 cell lysate; 0.2 mM, Lys2 site).
For `CC#CC(=O)N(Cc1ccc(F)cc1)C1CCN(C(C)=O)CC1`, the labelling was 19.7% (UCHL1; covalent, intact protein LC-MS; 12.5 µM).
The specific binding of `Nc1ncnc2c1ncn2[C@@H]1O[C@H](COP(=O)(O)CP(=O)(O)OP(=O)(O)O)[C@@H](O)[C@H]1O` is reported as 46.5 CCPM and 40.5 CCPM (P2X purinoceptor 1 (P2RX1, Homo sapiens, UniProt P51575, E282A); saturation binding; HEK293; 1 nM).
For `O=c1nc(SCc2cc(F)cc(C(F)(F)F)c2)nc(SCc2ccc3nc(Cl)ccc3c2)[nH]1`, the decatenated DNA was 79.3% (TOP2B; decatenation; 15.6 µM, replicate 1).
With `N[C@@H](Cc1ccc(O)c(O)c1)C(=O)O` the inhibition was -6% (Voltage-dependent P/Q-type calcium channel subunit alpha-1A; ion current, antagonist; HEK293; 3 µM).
`COc1ccc(CN2CCCC(N3CCN(c4cccc(Cl)c4)CC3)C2)cc1OC` (centres unmarked) gave an inhibition of 4.8% (Trypanosoma cruzi; reporter translation, Renilla luciferase mRNA translation; cell-free extract; 40 µM; reference: DMSO).
`CC(Cl)C(=O)N1c2ccccc2NC(=O)C1(C)C` (centres unmarked) gave a labelling of 9.79% (UCHL1; covalent, intact protein LC-MS; 12.5 µM).
The activation of `CCC(=O)NS(=O)(=O)c1ccc(-c2c(-c3ccccc3)noc2C)cc1` is reported as 0.99 fold (Nuclear receptor subfamily 1 group I member 3 (Homo sapiens, UniProt Q14994); reporter gene, Gal4 hybrid reporter; 50 µM; reference: vehicle).
The remaining activity of `O=C(NC1CCC1)c1ccc2nc(-c3cccc(NS(=O)(=O)NCCN4CCCCC4)c3)cn2c1` is reported as 49% (PIK3CA (Homo sapiens, UniProt P42336, Q546K); enzyme activity; 10 µM).
For `C=CC(=O)N1CCC(COCC(=O)N2CCN(c3nc(-c4cnc(N)nc4C(F)F)nc(N4CCOC[C@@H]4C)n3)CC2)CC1`, the remaining binding was 0.2% (PIK3CA (Homo sapiens, UniProt P42336, I800L); KINOMEscan; 1 µM).
`Cc1cc(Oc2ncccc2CN2CCN(Cc3ccc(F)cc3)CC2)ccc1-c1c(C)c(=O)[nH]c(=O)n1C` gave a selectivity ratio of 1 (ADRA2C; binding, radioligand binding; together with: [3H]rauwolscine; reference: Ki alpha2B over Ki alpha2C).
`O=C(NN(c1ccccc1)c1ccccc1)c1ccc([N+](=O)[O-])o1` gave an inhibition of 0.28% (Trypanosoma cruzi; reporter translation, Renilla luciferase mRNA translation; cell-free extract; 40 µM; reference: DMSO).
For `CN(CCO)c1cc2sc(/C=C(\C#N)c3ccc(C#N)cc3)cc2s1`, binding read “no binding” (T1, RNA aptamer; fluorescence activation, native PAGE).
With `Cc1cc(Oc2ncccc2CN2CCN(c3c(C)cccc3C)CC2)ccc1-c1c(C)c(=O)[nH]c(=O)n1C` the selectivity ratio was 5 (ADRA2C; binding, radioligand binding; together with: [3H]rauwolscine; reference: Ki alpha2B over Ki alpha2C).
`CCCCCCCC/C=C\CCCCCCCC(=O)NCCc1ccc(O)c(O)c1` — result for “maximal open probability”: 0.62 ± 0.1 (Trpv1 (Mus musculus, UniProt Q704Y3, R580K); ion current, agonist, whole-cell patch clamp; R580K; reference: 3 mM 2-APB).

Some of these lines once more:
For `CC(=O)N[C@H](C(=O)N1C[C@H](O)C[C@H]1C(=O)NCc1ccc(-c2scnc2C)cc1)C(C)(C)SCCCCCCNC(=O)C[C@@H]1N=C(c2ccc(Cl)cc2)c2c(sc(C)c2C)-n2c(C)nnc21`, the ΔG was -9.7 ± 0.05 kcal/mol (BRD2/VHL, BD2; with VCB (Homo sapiens, UniProt P25440+P40337); ternary complex binding, ITC; 25 °C, together with: VHL-ElonginB-ElonginC titrated into compound:PROTAC:Brd2^BD2 complex).
The labelling of `CCC(=O)N1CCc2cc(C(=O)CCl)ccc21` is reported as 12.6% (UCHL1; covalent, intact protein LC-MS; 12.5 µM).
`O=C(NN(c1ccccc1)c1ccccc1)c1ccc([N+](=O)[O-])o1` gave an inhibition of 0.28% (Trypanosoma cruzi; reporter translation, Renilla luciferase mRNA translation; cell-free extract; 40 µM; reference: DMSO).
`COc1ccc2cc(CNC(=O)C3(C(=O)O)CC=CC3)ccc2c1` has a remaining activity of 95% (malate dehydrogenase; enzyme activity, inhibitor; 200 µM, pH 7.0, 1% DMSO, aggregation counter-screen).
The specific binding of `Nc1ncnc2c1ncn2[C@@H]1O[C@H](COP(=O)(O)CP(=O)(O)OP(=O)(O)O)[C@@H](O)[C@H]1O` is reported as 46.5 CCPM and 40.5 CCPM (P2X purinoceptor 1 (P2RX1, Homo sapiens, UniProt P51575, E282A); saturation binding; HEK293; 1 nM).
With `N#CC(=Cc1cccc(Cl)c1Cl)C(=O)Nc1ccc(F)cc1` the labelling was 11.1% (UCHL1; covalent, intact protein LC-MS; 12.5 µM).
`c1coc(-c2n[nH]cc2-c2ccnc3ccccc23)c1`: “log2 fold change” -0.03 (Serine/threonine-protein kinase HSL1 (HSL1, Candida albicans, UniProt Q5AG71); kinase binding, MIB/MS competition; Candida albicans lysate; 10 µM; reference: DMSO, negative = stronger binding).
